Measurements of several laboratories.
Each numbered part is a random draw from the data of one study; scales do not carry over between parts.

Set 1 — method: aptamer microarray, sandwich; form: DNA with 2'F-ANA; sample: in vitro; concentration: 200 nM; together with: Cy3 exosite-II aptamer, 400 nM; direction: higher = stronger binding; quantity: mean fluorescence intensity; oligonucleotide: GGTTGGTGTGGTTGG
Target: Prothrombin, mature alpha-thrombin (F2, Homo sapiens, UniProt P00734)
Setting: whole 15-mer aptamer, many near background
2'F-ANA at 4 6 8 9 11 12: 445 a.u.
2'F-ANA at 2 3 4 6 7 11 12 14: 304 a.u.
2'F-ANA at 2 3 7 8 11 13 14: 484 a.u.
2'F-ANA at 1 2 4 5 8 9 10 11 13 14 15: 52.9 a.u.
2'F-ANA at 1 4 5 6 9 11 12 13: 67.7 a.u.
2'F-ANA at 3 5 6 8 10 11 12 13 15: 58.5 a.u.
2'F-ANA at 1 2 4 6 7 9 12 15: 235 a.u.
2'F-ANA at 1 5 6 8 13 15: 49.4 a.u.

Set 2 — method: protein-binding microarray; form: double-stranded DNA, one strand shown; sample: in vitro; concentration: 250 nM; setting: 60-bp whole probe; together with: salmon DNA 0.4 mg/ml; baseline: random background probes; direction: higher = stronger binding; quantity: log fluorescence; constant ends, left off below: GCCTAGCACT … GTCTTGATTCGCTTGACGCTGCTG
Target: Interferon regulatory factor 5, full length, phosphomimetic (IRF5, Homo sapiens, UniProt Q13568-2, residues 1-514, K96S/S451D/S453D/S456D/S462D)
TACGACTGGGGTTTCGGTTAGTGCTA: 7.36 z-score
TAAAACTGAGTTTCGATTAGTGCTAG: 9.66 z-score
CATATTTATTTTTACAACTGTGCTAG: 1.05 z-score
TAGAACTGAGTATCGAATAGTGCTAG: 1.9 z-score
CATGCTTGGGTCTGGGACTGTGCTAG: -0.544 z-score

Set 3 — method: RNA Bind-n-Seq; form: RNA; sample: in vitro; concentration: 200 nM; setting: whole 134-nt RNA, ends assumed; together with: 150 mM LiCl; baseline: input library; direction: higher = stronger binding; quantity: log2 enrichment; library: 7-deaza-guanosine replaces G
Target: Fragile X messenger ribonucleoprotein 1, C-terminal low-complexity region (Fmr1, Mus musculus, UniProt P35922)
Constant ends, left off below: GGGAGUUCUACAGUCCGACGAUC … UGGAAUUCUCGGGUGUCAAGG
UGGGAGGUGGAUUUUGUUUAUUUUUUUAGCUCAUUUCCAGGGGUGGGAAUGUUUUUUUAAUAUGUGUCAUGAAUAAAGUUGUUUUUGAAA: -0.666
UGCAGACGGGGAACCUGCUGAACUGGGGCCGCCUGCGGAAGAAGUGCCCGUCCACGCACAGCGAGGAGGUGAGCGUGGCGACACUCGCCG: -2.46
UCCUGUGCUACACAUCGUAUGUACCGAAUCGGGGAAAAAGGGGUUUUUGGGGAAAGGGGAAAGUAUUAUGUUACGCCGUUCGGAUCUGCA: -1.06
UGUGUGACUUCCUUGGAGAGAAGAUUGCAUCUGUUUUGGGUAUCAGCACCCCAAAGUACCAAUAUGCCAUUGAUGAAUAUUAUCGGAUGA: -0.773
CAAGUCCUGUGCUACACAUCGUAUGUACCGAAUCGGGGUUUGGUUUGGGUUUGGGAAAGUAUUAUGUUACGCCGUUCGGAUCUGCACUUC: -1.58

Mixed results
PhoQ, residues 284 288 289 292 302 303 NLMGRA  fold induction (PhoP, residues 12 14 15 18 19 SYFRT (Escherichia coli, UniProt P23836); Sort-seq, measured: YFP reporter; E. coli; PhoQ-PhoP variant library, together with: 10 µM Mg2+; baseline: high Mg2+ state, higher = stronger signaling): 1.18

A few entries again (set 2):
CATATTTATTTTTACAACTGTGCTAG: 1.05 z-score
TAGAACTGAGTATCGAATAGTGCTAG: 1.9 z-score
CATGCTTGGGTCTGGGACTGTGCTAG: -0.544 z-score
